Measured values gathered from unrelated publications.
Lines come from different studies, so protocols differ. Numbers after ± are the reported error.

Under “time-integrated activity coefficient”, `CN1C(=O)[C@@H](Cc2ccc(O)cc2)NC(=O)CNC(=O)[C@H](Cc2ccc3ccccc3c2)NC(=O)[C@H](CCCNC(=N)N)NC(=O)[C@H]1CCCNC(=O)c1ccc(CNC(=O)CN2CCN(CC(=O)O)CCN(CC(=O)O)CCN(CC(=O)O)CC2)cc1` [gallium-68 labelled] is recorded as 0.042 ± 0.012 MBq-h/MBq (adult reference man, from C57BL/6 mice data, heart contents; dose not given).
With `CCCC[C@H](NC(=O)COCCOCCNC(=O)CN1CCN(CC(=O)O)CCN(CC(=O)O)CC1)C(=O)N[C@H]1CC(=O)NCCCC[C@@H](C(N)=O)NC(=O)[C@H](Cc2c[nH]c3ccccc23)NC(=O)[C@H](CCCNC(=N)N)NC(=O)[C@@H](Cc2ccccc2)NC(=O)[C@H](Cc2c[nH]cn2)NC1=O` [copper-64 labelled] the tissue uptake was 1.21 ± 0.23 %ID/g (C57 mice, liver; intravenous, 0.37 MBq, 24 h).
The Vss of `C/C=C(/C)C(=O)O[C@H]1C(C)=C2[C@H]([C@@H]1OC(=O)CCCCCCC)[C@@](C)(OC(C)=O)C[C@H](OC(=O)CCCCCCCCCCCNC(=O)C[C@H](N)C(=O)N[C@@H](CCC(=O)N[C@@H](CCC(=O)N[C@@H](CCC(=O)N[C@@H](CCC(=O)O)C(=O)O)C(=O)O)C(=O)O)C(=O)O)[C@@]1(O)[C@H]2OC(=O)[C@@]1(C)O` is reported as 5000 mL/m² (human patients; intravenous infusion, 1 h infusion).
`CC1=C(I)C(C)=[N+]2C1=C(c1ccc(OCCn3cc(CNC(=O)CSC[C@H](NC(=O)c4ccc(-c5nnc(C)nn5)cc4)C(=O)N[C@H](CCCNC(=N)N)C(=O)N[C@@H](CC4CCCCC4)C(=O)N[C@H](CCCNC(=N)N)C(=O)N[C@@H](CC4CCCCC4)C(=O)N[C@H](CCCNC(=N)N)C(=O)N[C@@H](CC4CCCCC4)C(=O)N[C@H](CCCNC(=N)N)C(N)=O)nn3)cc1)c1c(C)c(I)c(C)n1[B-]2(F)F`: “singlet oxygen quantum yield” 0.56 (1 µM, added: DPBF, 525 nm light; baseline: rose bengal, erythrosine B).
`Cc1cc(-c2ccc(NC(=O)[C@H](CCCCNC(=O)CCOCCOCCC(=O)N[C@H](Cc3ccccc3)C(=O)N[C@H]3CSSC[C@@H](C(=O)N[C@H](C(=O)O)[C@@H](C)O)NC(=O)[C@H]([C@@H](C)O)NC(=O)[C@H](CCCCN)NC(=O)[C@@H](Cc4c[nH]c5ccccc45)NC(=O)[C@H](Cc4ccc(O)cc4)NC3=O)NC(=O)CN3CCN(CC(=O)O)CCN(CC(=O)O)CCN(CC(=O)O)CC3)c(C)c2)ccc1N=Nc1ccc2c(S(=O)(=O)O)cc(S(=O)(=O)O)c(N)c2c1O` [lutetium-177 labelled] — result for “effective half-life ratio”: 1.4 fold (patients with metastatic neuroendocrine tumours, all metastatic lesions; baseline: compound over 177Lu-EB-TATE).
With `N=C(N)NCCC[C@@H]1NC(=O)[C@H](CCCCNC(=O)CNC(=O)CNC(=O)CNC(=O)CC[C@H](NC(=O)CNC(=O)CNC(=O)CNC(=O)CN2CCN(CC(=O)O)CCN(CC(=O)O)CCN(CC(=O)O)CC2)C(=O)NCC(=O)NCC(=O)NCC(=O)NCCCC[C@@H]2NC(=O)[C@@H](Cc3ccccc3)NC(=O)[C@H](CC(=O)O)NC(=O)CNC(=O)[C@H](CCCNC(=N)N)NC2=O)NC(=O)[C@@H](Cc2ccccc2)NC(=O)[C@H](CC(=O)O)NC(=O)CNC1=O` [indium-111 labelled] the tissue uptake was 1.22 ± 0.08 %ID/g (female athymic nu/nu mice, lungs; intravenous, 4 h).
`C=C1CC[C@H](OCCCNC(=O)CCOCCOCCOCCOCCOCCOCCOCCOCCOCCOCCOCCOCCOCCOCCOCCOCCOCCOCCOCCOCCOCCOCCOCCOCCOCCOCCOCCOCCOCCOCCOCCOCCOCCOCCOCCOCCNC(=O)CCN2C(=O)CC(SC[C@H](NC(=O)[C@H](Cc3ccccc3)NC(=O)[C@H](CC(N)=O)NC(=O)[C@H](Cc3c[nH]cn3)NC(=O)[C@@H](NC(=O)[C@H](CC(=O)O)NC(=O)[C@H](CCC(N)=O)NC(=O)[C@H](CC(C)C)NC(=O)[C@H](CCCCN)NC(=O)[C@H](CCCCN)NC(=O)[C@H](CCCNC(=N)N)NC(=O)[C@H](CC(C)C)NC(=O)[C@H](Cc3c[nH]c4ccccc34)NC(=O)[C@H](CCC(=O)O)NC(=O)[C@@H](NC(=O)[C@H](CCCNC(=N)N)NC(=O)[C@H](CCC(=O)O)NC(=O)[C@H](CCSC)NC(=O)[C@H](CO)NC(=O)[C@H](CC(N)=O)NC(=O)[C@H](CC(C)C)NC(=O)[C@H](Cc3c[nH]cn3)NC(=O)[C@H](CCCCN)NC(=O)CNC(=O)[C@H](CC(C)C)NC(=O)[C@H](CC(N)=O)NC(=O)[C@H](Cc3c[nH]cn3)NC(=O)[C@H](CCSC)NC(=O)[C@H](CC(C)C)NC(=O)[C@H](CCC(N)=O)NC(=O)[C@@H](NC(=O)[C@H](CCC(=O)O)NC(=O)[C@H](CO)NC(=O)[C@@H](NC(=O)[C@@H](N)CO)C(C)C)[C@@H](C)CC)C(C)C)C(C)C)C(N)=O)C2=O)C/C1=C/C=C1\CCC[C@]2(C)[C@@H]([C@H](C)CCCC(C)(C)O)CC[C@@H]12` (stereo partly drawn) has an accumulation ratio of roughly 3 fold (Sprague Dawley rat; subcutaneous, daily, except 70 µg/kg; baseline: day 1).
With `N=C(N)NCCC[C@@H]1NC(=O)[C@H](CCCCNC(=O)CNC(=O)CNC(=O)CNC(=O)CC[C@H](NC(=O)CNC(=O)CNC(=O)CNC(=O)CC[C@H](NC(=O)CN2CCN(CC(=O)O)CCN(CC(=O)O)CCN(CC(=O)O)CC2)C(=O)NCC(=O)NCC(=O)NCC(=O)N[C@@H](CCC(=O)NCC(=O)NCC(=O)NCC(=O)NCCCC[C@@H]2NC(=O)[C@@H](Cc3ccccc3)NC(=O)[C@H](CC(=O)O)NC(=O)CNC(=O)[C@H](CCCNC(=N)N)NC2=O)C(=O)NCC(=O)NCC(=O)NCC(=O)NCCCC[C@@H]2NC(=O)[C@@H](Cc3ccccc3)NC(=O)[C@H](CC(=O)O)NC(=O)CNC(=O)[C@H](CCCNC(=N)N)NC2=O)C(=O)NCC(=O)NCC(=O)NCC(=O)NCCCC[C@@H]2NC(=O)[C@@H](Cc3ccccc3)NC(=O)[C@H](CC(=O)O)NC(=O)CNC(=O)[C@H](CCCNC(=N)N)NC2=O)NC(=O)[C@@H](Cc2ccccc2)NC(=O)[C@H](CC(=O)O)NC(=O)CNC1=O` [indium-111 labelled] the tissue uptake was 2.38 ± 0.49 %ID/g (female athymic nu/nu mice, spleen; intravenous, 111 kBq, 1 h).
The residence time of `Cc1cc(-c2ccc(NC(=O)[C@H](CCCCNC(=O)CCN3C(=O)CC(SCCC(=O)N[C@H](Cc4ccccc4)C(=O)N[C@H]4CSSC[C@@H](C(=O)N[C@H](C(=O)O)[C@@H](C)O)NC(=O)[C@H]([C@@H](C)O)NC(=O)[C@H](CCCCN)NC(=O)[C@@H](Cc5c[nH]c6ccccc56)NC(=O)[C@H](Cc5ccc(O)cc5)NC4=O)C3=O)NC(=O)CN3CCN(CC(=O)O)CCN(CC(=O)O)CCN(CC(=O)O)CC3)c(C)c2)ccc1N=Nc1ccc2c(S(=O)(=O)O)cc(S(=O)(=O)O)c(N)c2c1O` (stereo partly drawn) [lutetium-177 labelled] is reported as 0.96 ± 0.16 h (patients with metastatic NETs, liver).

Repeated from above:
With `N=C(N)NCCC[C@@H]1NC(=O)[C@H](CCCCNC(=O)CNC(=O)CNC(=O)CNC(=O)CC[C@H](NC(=O)CNC(=O)CNC(=O)CNC(=O)CN2CCN(CC(=O)O)CCN(CC(=O)O)CCN(CC(=O)O)CC2)C(=O)NCC(=O)NCC(=O)NCC(=O)NCCCC[C@@H]2NC(=O)[C@@H](Cc3ccccc3)NC(=O)[C@H](CC(=O)O)NC(=O)CNC(=O)[C@H](CCCNC(=N)N)NC2=O)NC(=O)[C@@H](Cc2ccccc2)NC(=O)[C@H](CC(=O)O)NC(=O)CNC1=O` [indium-111 labelled] the tissue uptake was 1.22 ± 0.08 %ID/g (female athymic nu/nu mice, lungs; intravenous, 4 h).
